Experimental data collected from several papers.
Each numbered part is a random draw from the data of one study; scales do not carry over between parts. Changes are numbered by the printed parent chain.

Block 1 — method: RNA Bind-n-Seq; form: RNA; medium: in vitro; concentration: 200 nM; notes: whole 134-nt RNA, ends assumed; together with: 150 mM KCl; baseline: input library; reading: higher = stronger binding
Target: Fragile X messenger ribonucleoprotein 1, C-terminal low-complexity region (Fmr1, Mus musculus, UniProt P35922)
The log2 enrichment of `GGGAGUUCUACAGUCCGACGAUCCCUGUGCUACACAUCGUAUGUACCGAAUCGGGUUUUUUGGUUUUUUGGGGUUUUUUGGGGAAAGUAUUAUGUUACGCCGUUCGGAUCUGCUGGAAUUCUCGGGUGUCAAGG` is reported as -0.593.
`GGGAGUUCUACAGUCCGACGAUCUAACUUUAGAGGAGGAUCUGAUGGAUAUGGCAGUGGACGUGGAUUUGGGGAUGGCUAUAAUGGGUAUGGAGGAGGACCUGGUGGUGGCAAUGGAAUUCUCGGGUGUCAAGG` gave a log2 enrichment of 0.217.
`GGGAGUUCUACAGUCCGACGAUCCACAGACAACACGCACCCACACAGACACAGAGGGAAGGGGUUGGGAUGGGGACAGGGUGCACAGCAGGGCGGGGUAGGACCCCAGUCCCUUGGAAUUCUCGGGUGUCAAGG` gave a log2 enrichment of 1.29.
With `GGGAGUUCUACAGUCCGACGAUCUCCUCAAGUCCUGUGCUACACAUCGUAUGUACCGAAUCGGCGGCGGGGCGGAAAGUAUUAUGUUACGCCGUUCGGAUCUGCACUUCCAGCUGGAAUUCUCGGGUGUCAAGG` the log2 enrichment was -0.109.
The log2 enrichment of `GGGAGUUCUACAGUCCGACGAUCCAAGUCCUGUGCUACACAUCGUAUGUACCGAAUCGGGUUUUUGGGUGGGAAAGGGAAAGUAUUAUGUUACGCCGUUCGGAUCUGCACUUCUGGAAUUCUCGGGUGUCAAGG` is reported as 0.837.
`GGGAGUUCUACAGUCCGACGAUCUGCCAGGCCCACCCCCAGGUGUUCCCGCGCCUGGGGGCCCACCCCUGUCCACCGGACCUAUAGUGGACCUGCUCCAGUACAGCCAGAAGGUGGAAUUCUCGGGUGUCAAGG` gave a log2 enrichment of 0.47.
With `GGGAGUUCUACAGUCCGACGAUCUAACUUUAGAGGAGGAUCUGAUGGAUAUGGCAGUGGACGUGGAUUUGGGGUUGGCUAUAAUGGGUAUGGAGGAGGACCUGGAGGUGGCAAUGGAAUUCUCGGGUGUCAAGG` the log2 enrichment was 0.228.
With `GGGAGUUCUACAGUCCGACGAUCCAAGUCCUGUGCUACACAUCGUAUGUACCGAAUCGGCCCCGGGCCCCGGCCCCGGGAAAGUAUUAUGUUACGCCGUUCGGAUCUGCACUUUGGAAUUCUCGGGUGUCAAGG` the log2 enrichment was -0.449.
With `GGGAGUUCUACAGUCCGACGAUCUGGGAGGUGGAUUUUGUUUAUUUUUUUAGCUCAUUUCCAGGGGUGGGAAUUUUUUUUUAAUAUGUGUCAUGAAUAAAGUUGUUUUUGAACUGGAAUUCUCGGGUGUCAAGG` the log2 enrichment was 0.332.
With `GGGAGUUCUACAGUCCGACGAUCCUGUGCUACACAUCGUAUGUACCGAAUCGGGAAAAAAAGGGGAAAAAAAGGAAAAAAAGGGGAAAGUAUUAUGUUACGCCGUUCGGAUCUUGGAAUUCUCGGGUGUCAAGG` the log2 enrichment was -0.357.

Block 2 — target: CCNE1, cyclin fold, Cln2 fusion (human); method: yeast growth competition, sequencing; medium: yeast; notes: weak parent motif; baseline: not given; reading: higher = stronger binding
Parent: CDC6 docking peptide (human); TLKGRRLVFDNQL
`NLKGRRLVFDNQL [T1N]` — result for “normalised enrichment score”: 0.845.
`TLAGRRLVFDNQL [K3A]` — result for “normalised enrichment score”: 0.122.
For `TLKGRRLVFDNQD [L13D]`, “normalised enrichment score” read -0.401.
For `TLKGRRLVMDNQL [F9M]`, “normalised enrichment score” read 0.233.
Under “normalised enrichment score”, `TLSGRRLVFDNQL [K3S]` is recorded as 0.529.
For `TLKGLRLVFDNQL [R5L]`, “normalised enrichment score” read 0.957.
Under “normalised enrichment score”, `TLKGRRLVRDNQL [F9R]` is recorded as 0.148.
`TLKIRRLVFDNQL [G4I]`: “normalised enrichment score” 1.87.
For `TLKGRRLVFDFQL [N11F]`, “normalised enrichment score” read 1.03.
For `TLKGYRLVFDNQL [R5Y]`, “normalised enrichment score” read 0.0505.
`TLKGRRLVFDNQN [L13N]`: “normalised enrichment score” 0.548.
`TLKGQRLVFDNQL [R5Q]`: “normalised enrichment score” -0.119.
`TLKGKRLVLDNQL [R5K F9L]`: “normalised enrichment score” 0.627.
`TLKGRRLVIDNQL [F9I]`: “normalised enrichment score” 0.772.
`TLKGRFLVFDNQL [R6F]`: “normalised enrichment score” -0.17.
`TLKGRRLVFNNQL [D10N]`: “normalised enrichment score” 1.45.
Under “normalised enrichment score”, `TLKGRRLGFDNQL [V8G]` is recorded as 0.107.
`TLPGRRLVFDNQL [K3P]`: “normalised enrichment score” 0.00266.
`TLKGRRLVFDNIL [Q12I]`: “normalised enrichment score” 0.994.
`TLKKRRLVFDNQL [G4K]` — result for “normalised enrichment score”: -0.0681.
Under “normalised enrichment score”, `TLKGRPLVFDNQL [R6P]` is recorded as 1.16.
Under “normalised enrichment score”, `TLKGRRSVFDNQL [L7S]` is recorded as -0.242.
`TLKGRRLVFDNQW [L13W]`: “normalised enrichment score” 0.781.
`TRKGRRLVFDNQL [L2R]`: “normalised enrichment score” 0.983.
For `TLKGRRLVFDNQP [L13P]`, “normalised enrichment score” read 0.985.

Block 3 — method: RNA Bind-n-Seq; form: RNA; medium: in vitro; concentration: 20 nM; notes: 6-mer, flanks averaged, single round; together with: 150 mM LiCl; baseline: input library; reading: higher = stronger binding
Target: TAR DNA-binding protein 43, full length, His tag (TARDBP, Homo sapiens, UniProt Q13148, residues 1-414)
Under “6-mer enrichment (R)”, `AUUUGA` is recorded as 0.978.
For `CUUGAA`, “6-mer enrichment (R)” read 0.963.
Under “6-mer enrichment (R)”, `AGGGGG` is recorded as 1.45.
Under “6-mer enrichment (R)”, `GUGUUC` is recorded as 1.15.
For `GUAUGU`, “6-mer enrichment (R)” read 1.81.
For `GUCUUG`, “6-mer enrichment (R)” read 1.07.
`AAGCCU`: “6-mer enrichment (R)” 0.867.
For `UUACGC`, “6-mer enrichment (R)” read 0.898.
`CCCGGC`: “6-mer enrichment (R)” 0.974.
For `AUUGGA`, “6-mer enrichment (R)” read 0.971.
For `AUCGCA`, “6-mer enrichment (R)” read 0.85.
`CAGUAG` — result for “6-mer enrichment (R)”: 0.909.
Under “6-mer enrichment (R)”, `AGGUCU` is recorded as 0.852.
Under “6-mer enrichment (R)”, `GGCAAC` is recorded as 0.863.
`CCGUUC` — result for “6-mer enrichment (R)”: 0.875.
`ACAUUC`: “6-mer enrichment (R)” 0.841.
For `UCCAGG`, “6-mer enrichment (R)” read 0.935.
For `AGGAUA`, “6-mer enrichment (R)” read 0.864.
For `AUGGUA`, “6-mer enrichment (R)” read 1.06.
`CCUUUG`: “6-mer enrichment (R)” 1.04.
Under “6-mer enrichment (R)”, `CUAAAA` is recorded as 0.855.
For `CAUUAA`, “6-mer enrichment (R)” read 0.894.
`UCCGUG`: “6-mer enrichment (R)” 0.958.
`GGUAUC`: “6-mer enrichment (R)” 0.907.
`AAUCAC`: “6-mer enrichment (R)” 0.829.

Block 4 — method: protein-binding microarray; form: double-stranded DNA, one strand shown; medium: in vitro; concentration: 0.8 µM; notes: whole 60-bp probe, no competitor; reading: higher = stronger binding
Target: Centromere-binding protein 1, full length, N-terminal tag (CBF1, Saccharomyces cerevisiae, UniProt P17106, residues 1-351)
UniProt P17106, sequence (whole entry, looked up): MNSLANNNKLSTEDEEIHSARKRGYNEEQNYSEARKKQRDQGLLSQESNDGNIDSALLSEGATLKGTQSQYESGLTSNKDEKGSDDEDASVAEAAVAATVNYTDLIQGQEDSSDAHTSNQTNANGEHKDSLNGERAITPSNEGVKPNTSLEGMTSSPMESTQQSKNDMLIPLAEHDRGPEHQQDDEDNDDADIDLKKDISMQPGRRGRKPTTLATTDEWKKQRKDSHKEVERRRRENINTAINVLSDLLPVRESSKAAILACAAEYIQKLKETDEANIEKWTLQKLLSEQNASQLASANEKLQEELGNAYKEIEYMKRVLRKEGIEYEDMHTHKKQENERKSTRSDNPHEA
With `GAATCTATATCGGGAAACGTGATTGATTGCGCATAGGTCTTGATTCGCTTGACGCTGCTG` the fluorescence intensity was 1600 a.u.
`CTACTCCTTATGTTTGGTGTCACTGTAAAGCGGTTCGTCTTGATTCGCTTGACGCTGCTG` has a fluorescence intensity of 542 a.u.
`CTAGCAAATAATATCCTCGTGACCTCGAGGCTTTTCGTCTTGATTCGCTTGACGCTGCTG` has a fluorescence intensity of 3620 a.u.
The fluorescence intensity of `GAATTTCAGGCTTTGAACGTGATTTTCCCAAACTAGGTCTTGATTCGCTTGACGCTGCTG` is reported as 726 a.u.
`GAAATTACCCATACAGGAGATATCTCCAACATATAGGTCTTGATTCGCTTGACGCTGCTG` has a fluorescence intensity of 495 a.u.
For `GAAAATGAACACTCTCATGTGATTAAAATGTATTAGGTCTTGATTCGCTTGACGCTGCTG`, the fluorescence intensity was 1560 a.u.
With `GAATTCAGAGAGCAGGTGATGACAAAAGTTACGTAGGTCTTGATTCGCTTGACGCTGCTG` the fluorescence intensity was 1690 a.u.
For `GAACTTCCCCTTTTAAACATGACTGAATTTTGGTAGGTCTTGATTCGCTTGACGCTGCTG`, the fluorescence intensity was 538 a.u.
`CTATTTGTACGTATTCACATGTCCTGGCGTGCGTTCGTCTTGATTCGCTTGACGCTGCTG` gave a fluorescence intensity of 753 a.u.
`CTATCAAAAAGCCATCACGTGGATCCCCGAAAATTCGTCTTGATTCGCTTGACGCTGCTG` has a fluorescence intensity of 7140 a.u.
`GAAGATTTTGAACATCACGGTTGGTCAAGACCATAGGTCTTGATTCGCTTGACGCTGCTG` has a fluorescence intensity of 516 a.u.
With `GAAGAGCTAAAAAGTCACGTATGTAGTGCTAATTAGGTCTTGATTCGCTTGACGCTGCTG` the fluorescence intensity was 658 a.u.
The fluorescence intensity of `CTAATGAAGAAAGATCAGGAGAAAAATTTTTTTTTCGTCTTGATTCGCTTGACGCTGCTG` is reported as 513 a.u.
`GAAATTTGTCCAATCGACGTGGTGGAAAGACTCTAGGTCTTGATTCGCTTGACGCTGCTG` has a fluorescence intensity of 528 a.u.
`CTATTATACCACCACCACATGCCATACTCACCCTTCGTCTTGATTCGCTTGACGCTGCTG` has a fluorescence intensity of 555 a.u.
With `GAATGTTTATGACTTCACGCGACATGTATAGATTAGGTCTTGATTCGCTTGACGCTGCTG` the fluorescence intensity was 704 a.u.
With `GAATTCTCTTGAGGTCACATGATCGCAAAATGGTAGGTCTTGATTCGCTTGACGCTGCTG` the fluorescence intensity was 15100 a.u.
`CTAATTTAGAATCAATAGGTGATGTCCACCCGGTTCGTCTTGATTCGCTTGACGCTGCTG` gave a fluorescence intensity of 519 a.u.
`GAAATAATTAATTGGCATGCGACCTTGTTATTGTAGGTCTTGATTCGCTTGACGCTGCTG` has a fluorescence intensity of 645 a.u.
`CTACATCGGTATTGTGGTGACATTTATTGAATTTTCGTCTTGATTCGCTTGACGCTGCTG` has a fluorescence intensity of 555 a.u.
`GAATCTTAATTGTGTTATCACCTGCTATTTTTCTAGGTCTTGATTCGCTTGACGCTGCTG` has a fluorescence intensity of 1250 a.u.
For `GAAGCCAGCGATCCCCGCGTGTCCTGCCCCTGATAGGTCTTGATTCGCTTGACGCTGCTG`, the fluorescence intensity was 500 a.u.
The fluorescence intensity of `GAACTCCCATTAAATCTGATGACTGTTTCTCATTAGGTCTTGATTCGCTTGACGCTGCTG` is reported as 567 a.u.
`GAAGCTGGGTTATTAAACGTGGAACTTTGGAAATAGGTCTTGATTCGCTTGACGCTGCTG` has a fluorescence intensity of 574 a.u.

For quick reference, copied from above (block 2):
Under “normalised enrichment score”, `TLKGRRSVFDNQL [L7S]` is recorded as -0.242.
Under “normalised enrichment score”, `TLSGRRLVFDNQL [K3S]` is recorded as 0.529.
For `TLKGRRLVMDNQL [F9M]`, “normalised enrichment score” read 0.233.
`TLKGRRLVIDNQL [F9I]`: “normalised enrichment score” 0.772.
`TLKGRFLVFDNQL [R6F]`: “normalised enrichment score” -0.17.
`NLKGRRLVFDNQL [T1N]` — result for “normalised enrichment score”: 0.845.
`TLKGRRLVFDNQW [L13W]`: “normalised enrichment score” 0.781.
`TLKKRRLVFDNQL [G4K]` — result for “normalised enrichment score”: -0.0681.
`TLPGRRLVFDNQL [K3P]`: “normalised enrichment score” 0.00266.
For `TLKGLRLVFDNQL [R5L]`, “normalised enrichment score” read 0.957.
For `TLKGYRLVFDNQL [R5Y]`, “normalised enrichment score” read 0.0505.
`TLKGQRLVFDNQL [R5Q]`: “normalised enrichment score” -0.119.
